Measured values pooled from the literature.
“And” joins repeats or separate records; there may be more than shown. ± gives the spread as reported.
CFTR del508-508: Cystic fibrosis transmembrane conductance regulator (CFTR, Homo sapiens, UniProt P13569, del508-508)
SULT1A1: Sulfotransferase 1A1 (SULT1A1, Homo sapiens, UniProt P50225)
Sequence of UniProt P50225 (whole entry, looked up): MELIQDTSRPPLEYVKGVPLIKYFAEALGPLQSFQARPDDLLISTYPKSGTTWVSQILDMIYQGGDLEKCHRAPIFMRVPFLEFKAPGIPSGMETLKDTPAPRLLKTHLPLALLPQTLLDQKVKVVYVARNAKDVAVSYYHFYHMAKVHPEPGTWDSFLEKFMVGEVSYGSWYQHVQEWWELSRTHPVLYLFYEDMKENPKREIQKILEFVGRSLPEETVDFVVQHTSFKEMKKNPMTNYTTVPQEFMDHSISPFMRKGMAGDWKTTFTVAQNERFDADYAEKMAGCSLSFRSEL
KCNT1: Potassium channel subfamily T member 1 (KCNT1, Homo sapiens, UniProt Q5JUK3)
Sequence of UniProt Q5JUK3 (whole entry, looked up): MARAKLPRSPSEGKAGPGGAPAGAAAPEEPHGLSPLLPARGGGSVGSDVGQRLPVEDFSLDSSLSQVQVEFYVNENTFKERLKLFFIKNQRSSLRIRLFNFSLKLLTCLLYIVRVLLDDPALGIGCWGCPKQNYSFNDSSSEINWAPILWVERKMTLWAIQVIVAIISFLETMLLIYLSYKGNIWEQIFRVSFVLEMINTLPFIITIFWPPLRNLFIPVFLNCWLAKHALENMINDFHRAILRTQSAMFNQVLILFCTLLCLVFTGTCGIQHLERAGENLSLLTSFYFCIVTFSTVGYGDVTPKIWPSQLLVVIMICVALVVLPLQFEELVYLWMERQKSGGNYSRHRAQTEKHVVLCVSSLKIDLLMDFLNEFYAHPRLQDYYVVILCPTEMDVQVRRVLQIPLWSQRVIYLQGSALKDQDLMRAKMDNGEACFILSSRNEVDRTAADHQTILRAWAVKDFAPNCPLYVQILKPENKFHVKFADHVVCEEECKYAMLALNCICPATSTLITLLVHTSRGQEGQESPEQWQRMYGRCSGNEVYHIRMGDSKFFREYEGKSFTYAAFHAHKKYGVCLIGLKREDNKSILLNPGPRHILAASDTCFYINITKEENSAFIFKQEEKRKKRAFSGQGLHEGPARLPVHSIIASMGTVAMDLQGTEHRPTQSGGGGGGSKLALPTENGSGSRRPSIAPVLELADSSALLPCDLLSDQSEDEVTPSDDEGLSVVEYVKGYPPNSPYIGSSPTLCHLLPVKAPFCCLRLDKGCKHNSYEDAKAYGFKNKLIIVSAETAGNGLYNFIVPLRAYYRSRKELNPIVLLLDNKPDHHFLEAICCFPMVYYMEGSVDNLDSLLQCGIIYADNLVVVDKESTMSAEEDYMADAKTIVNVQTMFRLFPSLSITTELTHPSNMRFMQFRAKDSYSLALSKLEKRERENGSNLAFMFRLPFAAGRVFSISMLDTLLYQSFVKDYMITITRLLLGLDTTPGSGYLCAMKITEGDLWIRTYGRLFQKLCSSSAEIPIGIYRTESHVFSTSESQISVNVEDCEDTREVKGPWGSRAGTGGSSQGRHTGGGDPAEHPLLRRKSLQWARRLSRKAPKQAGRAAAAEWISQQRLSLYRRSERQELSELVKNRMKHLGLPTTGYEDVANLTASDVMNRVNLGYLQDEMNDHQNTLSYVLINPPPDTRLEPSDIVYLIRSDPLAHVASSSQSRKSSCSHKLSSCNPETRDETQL
Kelch domain-containing protein 2: Kelch domain-containing protein 2 (UniProt Q9Y2U9)
Sequence of UniProt Q9Y2U9 (whole entry, looked up): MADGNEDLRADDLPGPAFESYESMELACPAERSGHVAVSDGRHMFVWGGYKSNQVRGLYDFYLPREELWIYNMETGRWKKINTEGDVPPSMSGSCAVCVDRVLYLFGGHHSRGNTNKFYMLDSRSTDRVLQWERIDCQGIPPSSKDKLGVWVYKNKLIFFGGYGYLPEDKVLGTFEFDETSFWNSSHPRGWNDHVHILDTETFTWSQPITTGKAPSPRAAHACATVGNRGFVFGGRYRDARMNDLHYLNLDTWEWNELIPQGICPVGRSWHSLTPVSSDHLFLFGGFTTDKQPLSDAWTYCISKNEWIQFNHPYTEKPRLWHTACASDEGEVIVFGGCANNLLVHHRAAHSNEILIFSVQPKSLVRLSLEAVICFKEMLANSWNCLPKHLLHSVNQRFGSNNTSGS
YAP1 WW2 domain: Transcriptional coactivator YAP1, WW2 domain (YAP1, Homo sapiens, UniProt P46937)
Sequence of UniProt Q8WXD0 (whole entry, looked up): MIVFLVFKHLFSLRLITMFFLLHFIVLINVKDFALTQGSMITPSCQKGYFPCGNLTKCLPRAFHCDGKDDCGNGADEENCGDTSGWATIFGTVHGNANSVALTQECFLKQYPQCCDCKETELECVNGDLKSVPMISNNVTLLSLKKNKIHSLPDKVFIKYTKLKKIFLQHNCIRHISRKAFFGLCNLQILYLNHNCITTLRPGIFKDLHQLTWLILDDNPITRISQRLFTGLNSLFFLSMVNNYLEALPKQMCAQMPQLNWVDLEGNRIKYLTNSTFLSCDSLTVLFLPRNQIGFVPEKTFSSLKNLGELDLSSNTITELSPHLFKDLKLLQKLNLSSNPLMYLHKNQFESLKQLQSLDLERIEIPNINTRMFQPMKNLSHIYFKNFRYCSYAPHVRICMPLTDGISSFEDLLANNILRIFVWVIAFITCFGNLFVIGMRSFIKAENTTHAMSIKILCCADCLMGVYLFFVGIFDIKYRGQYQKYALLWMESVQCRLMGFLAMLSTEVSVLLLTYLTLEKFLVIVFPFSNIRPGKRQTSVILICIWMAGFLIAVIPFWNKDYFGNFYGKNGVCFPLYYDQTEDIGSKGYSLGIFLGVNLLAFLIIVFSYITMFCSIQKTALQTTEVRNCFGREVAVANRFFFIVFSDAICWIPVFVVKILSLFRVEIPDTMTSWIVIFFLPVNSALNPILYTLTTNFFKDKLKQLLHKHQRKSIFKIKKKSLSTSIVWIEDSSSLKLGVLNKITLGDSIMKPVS
Sequence of UniProt Q01650 (whole entry, looked up): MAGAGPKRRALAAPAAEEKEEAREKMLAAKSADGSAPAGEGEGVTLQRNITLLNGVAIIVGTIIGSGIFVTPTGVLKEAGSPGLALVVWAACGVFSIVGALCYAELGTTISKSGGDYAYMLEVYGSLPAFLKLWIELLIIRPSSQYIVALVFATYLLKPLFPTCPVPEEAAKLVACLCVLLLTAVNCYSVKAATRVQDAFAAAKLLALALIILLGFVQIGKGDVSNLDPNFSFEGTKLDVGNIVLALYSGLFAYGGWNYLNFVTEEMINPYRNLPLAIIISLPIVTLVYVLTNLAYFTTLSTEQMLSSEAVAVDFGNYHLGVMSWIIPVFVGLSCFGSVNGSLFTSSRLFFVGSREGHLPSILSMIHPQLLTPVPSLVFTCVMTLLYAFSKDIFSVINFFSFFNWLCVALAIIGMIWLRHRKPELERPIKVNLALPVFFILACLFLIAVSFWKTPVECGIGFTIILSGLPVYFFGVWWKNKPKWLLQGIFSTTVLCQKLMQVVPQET
Sequence of UniProt Q9NNX6 (whole entry, looked up): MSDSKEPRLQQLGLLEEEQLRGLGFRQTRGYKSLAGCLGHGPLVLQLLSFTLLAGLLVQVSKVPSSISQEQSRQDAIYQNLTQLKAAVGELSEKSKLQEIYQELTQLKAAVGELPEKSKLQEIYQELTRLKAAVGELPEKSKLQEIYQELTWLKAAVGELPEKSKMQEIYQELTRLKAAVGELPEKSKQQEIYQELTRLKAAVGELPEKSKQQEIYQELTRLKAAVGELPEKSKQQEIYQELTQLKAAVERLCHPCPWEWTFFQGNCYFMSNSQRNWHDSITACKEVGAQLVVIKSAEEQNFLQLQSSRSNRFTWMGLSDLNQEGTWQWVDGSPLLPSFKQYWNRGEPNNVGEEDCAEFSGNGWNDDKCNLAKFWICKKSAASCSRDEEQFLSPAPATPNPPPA
Sequence of UniProt P51955 (whole entry, unmodified, looked up): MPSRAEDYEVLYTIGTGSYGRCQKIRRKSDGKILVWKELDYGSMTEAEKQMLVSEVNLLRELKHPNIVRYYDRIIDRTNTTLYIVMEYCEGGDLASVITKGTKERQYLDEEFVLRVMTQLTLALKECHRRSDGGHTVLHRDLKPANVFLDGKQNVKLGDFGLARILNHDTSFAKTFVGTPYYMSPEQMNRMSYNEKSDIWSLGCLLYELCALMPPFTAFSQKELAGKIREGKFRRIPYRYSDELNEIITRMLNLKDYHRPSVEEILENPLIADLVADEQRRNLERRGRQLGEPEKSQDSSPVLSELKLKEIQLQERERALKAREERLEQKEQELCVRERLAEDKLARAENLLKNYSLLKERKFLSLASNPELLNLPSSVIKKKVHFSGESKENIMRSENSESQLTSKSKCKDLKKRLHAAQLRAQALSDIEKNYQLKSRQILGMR
Sequence of UniProt P10276 (whole entry, looked up): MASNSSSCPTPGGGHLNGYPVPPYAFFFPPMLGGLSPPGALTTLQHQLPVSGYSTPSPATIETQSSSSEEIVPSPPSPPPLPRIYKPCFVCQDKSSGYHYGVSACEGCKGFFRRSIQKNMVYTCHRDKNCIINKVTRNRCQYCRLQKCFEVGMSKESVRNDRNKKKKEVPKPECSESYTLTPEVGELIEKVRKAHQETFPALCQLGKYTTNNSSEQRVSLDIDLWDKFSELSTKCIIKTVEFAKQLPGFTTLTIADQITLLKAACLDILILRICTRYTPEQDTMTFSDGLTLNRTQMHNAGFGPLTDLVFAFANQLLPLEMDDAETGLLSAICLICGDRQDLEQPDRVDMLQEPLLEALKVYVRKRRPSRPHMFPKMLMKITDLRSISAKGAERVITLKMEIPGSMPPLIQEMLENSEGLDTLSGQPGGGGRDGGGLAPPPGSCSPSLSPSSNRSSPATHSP

`CN(C)c1cccc(Nc2nc3c(s2)CCCCc2nc(NC(=O)C(C)(C)C)sc2-3)c1` has a Vmax of 291 µM/s (CFTR del508-508; iodide influx, corrector, YFP halide quenching; FRT cells expressing YFP-H148Q/I152L; 16 to 20 h, 37 °C, genistein 50 µM, added: forskolin 20 µM).
`COc1ccc([C@@H]2CC(=O)c3c(O)cc(O)cc3O2)cc1O`: “substrate inhibition onset” greater than 16 µM (SULT1A1; substrate; recombinant enzyme).
`CCOc1ccccc1S(=O)(=O)c1ccc(-c2nc(-c3ccc(F)cc3)no2)cc1` — result for activity class: “inactive” (KCNT1; Tl+ flux, inhibitor; HEK293 expressing KCNT1; 30 µM).
The inhibition of `C/C(=N/N=c1/scc(-c2ccc(Br)cc2)n1Cc1ccccc1)c1ccc2c(c1)OCCO2` is reported as 23.4% (Aldo-keto reductase family 1 member A1 (Bos taurus, UniProt Q3ZCJ2); enzyme activity, inhibitor, absorbance; 1 mM).
For `Nc1ncnc2c1ncn2[C@@H]1O[C@H](COP(=O)(O)OP(=O)(O)OP(=O)(O)O)[C@@H](O)[C@H]1O`, the ΔTm was 2 °C (Histidine--tRNA ligase, cytoplasmic (HARS1, Homo sapiens, UniProt P12081); thermal stability, DSF).
`CC1=C(/C=C/C(C)=C/C=C/C(C)=C/C(=O)O)C(C)(C)CCC1` has a remaining activity of 100% (Retinoic acid receptor alpha (RARA, Homo sapiens, UniProt P10276); reporter gene, antagonist, Gal4 transactivation luciferase; HEK293; 0.1 µM, added: all-trans retinoic acid 100 nM; baseline: agonist alone).
The Ki of `Oc1ccccc1` is reported as 1500 ± 300 µM (SULT1A1; sulfation, inhibitor; pH 6.2, 37 °C, competitive versus pNPS, dead-end complex, added: PAP 0.1 mM).
For `Cc1cc(C)c2cc(C#N)c(NCCNC(=O)c3ccncc3)nc2c1`, the Vmax was 176 µM/s (CFTR del508-508; CFTR correction, corrector, iodide influx rate; FRT expressing YFP-H148Q/I152L; up to 25 µM, 16-20 h, 37 °C, added: forskolin 20 µM, genistein 50 µM).
Under “fraction of protein bound”, `FVFGG` is recorded as 0.5% (Kelch domain-containing protein 2; native mass spectrometry; peptide, 200 mM ammonium acetate; 20 µM Kelch domain-containing protein 2, pH 7; baseline: total Kelch domain-containing protein 2 signal).
For `CC(C)[C@H](NC(=O)[C@@H](N)[C@@H](C)O)C(=O)N[C@@H](C)C(=O)N1CCC[C@H]1C(=O)N1CCC[C@H]1C(=O)N1CCC[C@H]1C(=O)N1CCC[C@H]1C(=O)N[C@@H](Cc1ccc(O)cc1)C(=O)N[C@@H](CCCNC(=N)N)C(=O)N[C@@H](Cc1c[nH]cn1)C(=O)N[C@@H](CCCNC(=N)N)C(=O)N[C@@H](CC(N)=O)C(=O)O`, the ΔG was -5.58 ± 0.12 kcal/mol (YAP1 WW2 domain; binding, ITC; pH 7.0, 25 °C, WW2 domain).
For `CC(C)[C@H](NC(=O)OCc1ccccc1)C(=O)N[C@H](C=O)Cc1ccccc1`, “bound plasminogen fluorescence” read 312 ± 35 MFI (integrin alphaM beta2 (human); ligand binding, inhibitor, flow cytometry; human neutrophils; concentration not given, 1 h, 37 °C, integrin clustering inhibitor, added: Alexa 488-labelled plasminogen; baseline: no inhibitor, lower means less binding).
With `CSCC[C@H](NC(=O)[C@H](CCC(=O)O)NC(=O)[C@@H]1CCCN1C(=O)[C@@H](NC(=O)[C@@H]1CCCN1)[C@@H](C)O)C(=O)N[C@@H](CCCNC(=N)N)C(=O)N[C@@H](CCC(=O)O)C(=O)N[C@@H](CCCCN)C(=O)N[C@@H](CC(C)C)C(=O)N[C@H]1CSSC[C@@H]2NC(=O)[C@@H](NC(=O)[C@H](Cc3ccc(O)cc3)NC(=O)[C@H](CCCNC(=N)N)NC(=O)[C@H](C)NC(=O)[C@@H]3CCCN3C(=O)[C@H](CC(N)=O)NC(=O)[C@@H](NC(=O)[C@H](C)NC(=O)[C@H](C)NC(=O)[C@H](C)N)[C@@H](C)O)CSSC[C@H](NC(=O)CNC(=O)[C@H](CO)NC(=O)[C@H](CC(C)C)NC2=O)C(=O)N[C@@H]([C@@H](C)O)C(=O)N[C@@H](CCC(N)=O)C(=O)N[C@@H](CCC(N)=O)C(=O)N[C@@H](CC(=O)O)C(=O)N[C@@H](CC(C)C)C(=O)N[C@@H](CC(C)C)C(=O)N[C@@H]([C@@H](C)O)C(=O)N[C@@H](CC(C)C)C(=O)N[C@H](C(=O)N2CCC[C@H]2C(=O)N[C@@H](Cc2ccc(O)cc2)C(=O)O)CSSC[C@@H](C(=O)NCC(=O)NCC(=O)N2CCC[C@H]2C(=O)N[C@@H](CCCNC(=N)N)C(=O)N[C@@H](Cc2c[nH]c3ccccc23)C(=O)N[C@@H](CO)C(=O)N[C@H](C(=O)N[C@@H](CCC(=O)O)C(=O)N[C@@H](C)C(=O)O)[C@@H](C)O)NC(=O)[C@H](C(C)C)NC(=O)[C@H](CCCNC(=N)N)NC(=O)[C@H](C(C)C)NC(=O)[C@H](CC(C)C)NC(=O)[C@H](C)NC(=O)[C@H](CCCNC(=N)N)NC(=O)[C@H](C(C)C)NC(=O)[C@H](Cc2ccccc2)NC(=O)[C@H](Cc2c[nH]cn2)NC(=O)[C@H](Cc2c[nH]cn2)NC(=O)CNC1=O` the Emax was 94.8 ± 2.89% (Relaxin receptor 2 (RXFP2, Homo sapiens, UniProt Q8WXD0); cAMP production, agonist, CAMYEL BRET; HEK293 expressing RXFP2; 45 min, 37 °C; baseline: forskolin 10 µM).
`VGNRGFVFGG` — result for “fraction of protein bound”: 1.4% (Kelch domain-containing protein 2; native mass spectrometry; peptide, 200 mM ammonium acetate; 20 µM Kelch domain-containing protein 2, pH 7; baseline: total Kelch domain-containing protein 2 signal).
`N[C@@H](Cc1ccccc1)C(=O)O` gave a relative efflux of 100% (Large neutral amino acids transporter small subunit 1 (SLC7A5, Homo sapiens, UniProt Q01650); substrate; HEK293 expressing human LAT1; 200 µM, 3 min, added: [3H]-gabapentin preloaded; baseline: L-phenylalanine).
For `YSLAAVVLGLVQSLNRQRQKQLLNE`, the koff2 was 1.59 s⁻¹ and 1.6 s⁻¹ (Calmodulin-1 (Calm1, Rattus norvegicus, UniProt P0DP29); Ca2+ dissociation, stopped-flow quin-2 fluorescence; peptide; 2 µM, pH 7.4, 22 °C, added: Ca2+-calmodulin complex).
For `IINFEKL`, the Hill coefficient was 2 (Endoplasmic reticulum aminopeptidase 1 (ERAP1, Homo sapiens, UniProt Q9NZ08, F803R); substrate; peptide; pH 8.0, 27 °C, mutant F803R, added: L-AMC, peptide activator 100 µM).
`O=C(ON1C(=O)CCC1=O)c1cc(C(F)(F)F)cc(C(F)(F)F)c1` gave an HRP binding of no less than 50% (CD209 antigen (CD209, Homo sapiens, UniProt Q9NNX6); activator, plate-based HRP; 500 µM, overnight, 4 °C or RT; baseline: DMSO control).
The ΔH of `CC(C)C[C@H](NC(=O)[C@@H](NC(=O)[C@@H](N)[C@@H](C)O)C(C)C)C(=O)N1CCC[C@H]1C(=O)N1CCC[C@H]1C(=O)N1CCC[C@H]1C(=O)N1CCC[C@H]1C(=O)N[C@@H](Cc1ccc(O)cc1)C(=O)N[C@@H](CCCNC(=N)N)C(=O)N[C@@H](Cc1c[nH]cn1)C(=O)N[C@@H](C)C(=O)N[C@@H](CC(N)=O)C(=O)O` is reported as -9.06 ± 0.11 kcal/mol (YAP1 WW2 domain; binding, ITC; pH 7.0, 25 °C, WW2 domain).
The phosphorylation of `GHDTSFYWAAYKKKK` is reported as roughly 8% (Serine/threonine-protein kinase Nek2 (NEK2, Homo sapiens, UniProt P51955, T175A); substrate; peptide; Km of kinase, 1 h, 30 °C; baseline: optimal peptide).
With `CC[C@H](C)[C@H](NC(=O)[C@@H]1CCCN1C(=O)[C@@H]1CCCN1C(=O)[C@@H]1CCCN1C(=O)[C@@H](NC(=O)[C@H](CC(N)=O)NC(=O)[C@@H](N)Cc1ccccc1)[C@@H](C)CC)C(=O)N[C@@H](Cc1ccc(O)cc1)C(=O)N[C@H](C(=O)N[C@@H](CO)C(=O)N[C@@H](CCCNC(=N)N)C(=O)N[C@@H](C)C(=O)O)[C@@H](C)O` the TΔS was 1.57 ± 0.55 kcal/mol (YAP1 WW2 domain; binding, ITC; pH 7.0, 25 °C, WW2 domain).
For `O=S(=O)(Sc1ccc(Br)cc1)c1ccc(Br)cc1`, the inhibition was 6.6 ± 4% (tubulin; colchicine binding; 5 µM, 10 min, 37 °C, added: 5.0 µM [3H]colchicine).
Under activity class, `O=S(=O)(c1cccc(Cl)c1)N1CC(c2nc(-c3ccsc3)no2)C1` is recorded as “inactive” (KCNT1; Tl+ flux, inhibitor; HEK293 expressing KCNT1; 30 µM).
For `O=C(O)/C(O)=C/C=C\Br`, the KI was 260 µM (4-oxalocrotonate tautomerase (Leptothrix cholodnii, UniProt B1Y2E4); irreversible inactivation, covalent inhibitor; pH 7.3, 24 °C).
`CCOc1ccccc1S(=O)(=O)N1CC(c2nc(-c3ccccc3C)no2)C1` gave an efficacy of less than 10% (KCNT1; Tl+ flux, activator; HEK293 expressing KCNT1; 30 µM; baseline: loxapine maximum response).
With `CC(C)C[C@H](NC(=O)[C@@H](NC(=O)[C@@H](N)[C@@H](C)O)C(C)C)C(=O)N1CCC[C@H]1C(=O)N1CCC[C@H]1C(=O)N1CCC[C@H]1C(=O)N1CCC[C@H]1C(=O)N[C@@H](Cc1ccc(O)cc1)C(=O)N[C@@H](CCCNC(=N)N)C(=O)N[C@@H](Cc1c[nH]cn1)C(=O)N[C@@H](CCCNC(=N)N)C(=O)N[C@@H](CC(N)=O)C(=O)O` the ΔH was -13.3 ± 0.49 kcal/mol (Transcriptional coactivator YAP1, WW1 domain (YAP1, Homo sapiens, UniProt P46937); binding, ITC; pH 7.0, 25 °C, WW1 domain).

For quick reference, copied from above:
`O=C(ON1C(=O)CCC1=O)c1cc(C(F)(F)F)cc(C(F)(F)F)c1` gave an HRP binding of no less than 50% (CD209 antigen (CD209, Homo sapiens, UniProt Q9NNX6); activator, plate-based HRP; 500 µM, overnight, 4 °C or RT; baseline: DMSO control).
For `CC(C)[C@H](NC(=O)[C@@H](N)[C@@H](C)O)C(=O)N[C@@H](C)C(=O)N1CCC[C@H]1C(=O)N1CCC[C@H]1C(=O)N1CCC[C@H]1C(=O)N1CCC[C@H]1C(=O)N[C@@H](Cc1ccc(O)cc1)C(=O)N[C@@H](CCCNC(=N)N)C(=O)N[C@@H](Cc1c[nH]cn1)C(=O)N[C@@H](CCCNC(=N)N)C(=O)N[C@@H](CC(N)=O)C(=O)O`, the ΔG was -5.58 ± 0.12 kcal/mol (YAP1 WW2 domain; binding, ITC; pH 7.0, 25 °C, WW2 domain).
`N[C@@H](Cc1ccccc1)C(=O)O` gave a relative efflux of 100% (Large neutral amino acids transporter small subunit 1 (SLC7A5, Homo sapiens, UniProt Q01650); substrate; HEK293 expressing human LAT1; 200 µM, 3 min, added: [3H]-gabapentin preloaded; baseline: L-phenylalanine).
